# Published values pooled from the literature.
# Each numbered part is a random draw from the data of one study; scales do not carry over between parts.
# Sequence of UniProt P51812 (whole entry, looked up): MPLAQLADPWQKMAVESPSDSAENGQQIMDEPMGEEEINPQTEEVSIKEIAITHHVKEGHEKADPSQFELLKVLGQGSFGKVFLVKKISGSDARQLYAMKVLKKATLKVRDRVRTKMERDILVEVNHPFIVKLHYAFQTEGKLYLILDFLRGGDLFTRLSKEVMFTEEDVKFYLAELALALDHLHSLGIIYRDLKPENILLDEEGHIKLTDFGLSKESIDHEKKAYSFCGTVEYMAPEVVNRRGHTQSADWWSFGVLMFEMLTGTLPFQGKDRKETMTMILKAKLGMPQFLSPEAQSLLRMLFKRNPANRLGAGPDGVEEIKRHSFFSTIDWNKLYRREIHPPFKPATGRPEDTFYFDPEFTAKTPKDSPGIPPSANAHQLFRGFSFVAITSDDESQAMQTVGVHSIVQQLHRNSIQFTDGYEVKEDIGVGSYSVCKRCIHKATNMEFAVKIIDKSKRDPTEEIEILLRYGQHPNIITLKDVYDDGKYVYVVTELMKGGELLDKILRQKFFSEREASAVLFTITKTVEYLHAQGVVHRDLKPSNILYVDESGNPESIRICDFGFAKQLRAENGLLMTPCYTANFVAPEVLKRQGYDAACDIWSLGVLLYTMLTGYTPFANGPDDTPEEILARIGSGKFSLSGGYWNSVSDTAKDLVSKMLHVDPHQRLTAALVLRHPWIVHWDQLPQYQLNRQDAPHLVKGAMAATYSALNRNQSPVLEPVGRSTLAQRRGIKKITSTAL
# Sequence of UniProt Q9Y2H1 (whole entry, looked up): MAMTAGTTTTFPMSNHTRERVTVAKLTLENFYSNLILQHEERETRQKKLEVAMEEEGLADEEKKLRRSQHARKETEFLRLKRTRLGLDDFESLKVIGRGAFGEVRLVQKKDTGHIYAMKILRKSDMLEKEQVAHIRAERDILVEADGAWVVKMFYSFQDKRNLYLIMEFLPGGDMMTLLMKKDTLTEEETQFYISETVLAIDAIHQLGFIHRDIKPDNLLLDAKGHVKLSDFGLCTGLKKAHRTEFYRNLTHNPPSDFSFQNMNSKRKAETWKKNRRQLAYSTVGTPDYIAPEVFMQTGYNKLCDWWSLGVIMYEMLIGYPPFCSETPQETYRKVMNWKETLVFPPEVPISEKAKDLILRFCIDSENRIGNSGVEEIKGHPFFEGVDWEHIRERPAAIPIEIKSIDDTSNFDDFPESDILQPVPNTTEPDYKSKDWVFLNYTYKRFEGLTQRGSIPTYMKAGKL
# Sequence of UniProt O94804 (whole entry, looked up): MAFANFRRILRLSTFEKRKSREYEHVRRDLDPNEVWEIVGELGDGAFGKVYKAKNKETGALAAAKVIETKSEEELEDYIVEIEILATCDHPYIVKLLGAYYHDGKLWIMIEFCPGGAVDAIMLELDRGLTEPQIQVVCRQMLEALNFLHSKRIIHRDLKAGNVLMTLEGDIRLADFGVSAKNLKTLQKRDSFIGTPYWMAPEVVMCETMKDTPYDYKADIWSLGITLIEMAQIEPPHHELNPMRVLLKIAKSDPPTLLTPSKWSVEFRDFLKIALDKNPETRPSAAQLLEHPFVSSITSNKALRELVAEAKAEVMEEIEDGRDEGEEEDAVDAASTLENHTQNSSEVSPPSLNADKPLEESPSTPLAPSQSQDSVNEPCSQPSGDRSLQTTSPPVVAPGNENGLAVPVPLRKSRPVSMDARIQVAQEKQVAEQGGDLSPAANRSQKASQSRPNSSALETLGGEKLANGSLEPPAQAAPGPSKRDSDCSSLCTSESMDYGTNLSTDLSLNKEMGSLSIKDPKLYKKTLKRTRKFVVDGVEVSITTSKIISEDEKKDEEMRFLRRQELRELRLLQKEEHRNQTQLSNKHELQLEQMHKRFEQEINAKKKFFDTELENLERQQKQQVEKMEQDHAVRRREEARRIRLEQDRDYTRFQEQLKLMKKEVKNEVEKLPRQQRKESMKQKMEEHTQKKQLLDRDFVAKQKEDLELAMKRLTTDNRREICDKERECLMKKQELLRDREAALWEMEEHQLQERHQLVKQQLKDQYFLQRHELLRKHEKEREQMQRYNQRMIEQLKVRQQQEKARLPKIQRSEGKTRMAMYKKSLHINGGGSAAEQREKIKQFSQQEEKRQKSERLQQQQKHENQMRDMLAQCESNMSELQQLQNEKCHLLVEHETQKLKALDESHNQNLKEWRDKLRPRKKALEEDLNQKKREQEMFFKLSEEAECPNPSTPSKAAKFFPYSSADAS
# Sequence of UniProt Q9H0K1 (whole entry, looked up): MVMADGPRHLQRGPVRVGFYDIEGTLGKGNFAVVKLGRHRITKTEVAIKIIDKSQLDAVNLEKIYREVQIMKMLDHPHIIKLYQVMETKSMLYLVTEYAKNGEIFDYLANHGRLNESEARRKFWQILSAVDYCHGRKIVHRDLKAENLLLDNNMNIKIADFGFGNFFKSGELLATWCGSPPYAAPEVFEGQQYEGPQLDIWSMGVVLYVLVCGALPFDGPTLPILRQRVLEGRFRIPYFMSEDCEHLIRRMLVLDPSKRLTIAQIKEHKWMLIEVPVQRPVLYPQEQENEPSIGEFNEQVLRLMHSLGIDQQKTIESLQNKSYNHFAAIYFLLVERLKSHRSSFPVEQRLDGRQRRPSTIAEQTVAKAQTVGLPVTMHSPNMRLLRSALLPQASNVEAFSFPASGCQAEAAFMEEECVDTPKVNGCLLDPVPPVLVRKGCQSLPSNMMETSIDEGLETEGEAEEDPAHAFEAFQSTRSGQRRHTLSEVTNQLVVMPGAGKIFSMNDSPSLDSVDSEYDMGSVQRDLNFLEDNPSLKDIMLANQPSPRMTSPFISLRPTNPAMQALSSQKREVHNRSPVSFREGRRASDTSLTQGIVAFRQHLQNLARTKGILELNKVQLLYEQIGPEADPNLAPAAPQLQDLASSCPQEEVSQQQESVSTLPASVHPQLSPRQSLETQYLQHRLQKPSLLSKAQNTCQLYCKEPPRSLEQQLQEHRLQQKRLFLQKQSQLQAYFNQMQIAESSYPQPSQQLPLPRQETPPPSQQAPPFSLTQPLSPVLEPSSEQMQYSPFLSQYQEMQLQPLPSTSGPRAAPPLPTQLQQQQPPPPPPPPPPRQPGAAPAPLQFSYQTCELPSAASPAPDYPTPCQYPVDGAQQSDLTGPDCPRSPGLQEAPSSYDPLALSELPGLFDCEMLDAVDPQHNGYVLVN
# Sequence of UniProt Q56UN5 (whole entry, looked up): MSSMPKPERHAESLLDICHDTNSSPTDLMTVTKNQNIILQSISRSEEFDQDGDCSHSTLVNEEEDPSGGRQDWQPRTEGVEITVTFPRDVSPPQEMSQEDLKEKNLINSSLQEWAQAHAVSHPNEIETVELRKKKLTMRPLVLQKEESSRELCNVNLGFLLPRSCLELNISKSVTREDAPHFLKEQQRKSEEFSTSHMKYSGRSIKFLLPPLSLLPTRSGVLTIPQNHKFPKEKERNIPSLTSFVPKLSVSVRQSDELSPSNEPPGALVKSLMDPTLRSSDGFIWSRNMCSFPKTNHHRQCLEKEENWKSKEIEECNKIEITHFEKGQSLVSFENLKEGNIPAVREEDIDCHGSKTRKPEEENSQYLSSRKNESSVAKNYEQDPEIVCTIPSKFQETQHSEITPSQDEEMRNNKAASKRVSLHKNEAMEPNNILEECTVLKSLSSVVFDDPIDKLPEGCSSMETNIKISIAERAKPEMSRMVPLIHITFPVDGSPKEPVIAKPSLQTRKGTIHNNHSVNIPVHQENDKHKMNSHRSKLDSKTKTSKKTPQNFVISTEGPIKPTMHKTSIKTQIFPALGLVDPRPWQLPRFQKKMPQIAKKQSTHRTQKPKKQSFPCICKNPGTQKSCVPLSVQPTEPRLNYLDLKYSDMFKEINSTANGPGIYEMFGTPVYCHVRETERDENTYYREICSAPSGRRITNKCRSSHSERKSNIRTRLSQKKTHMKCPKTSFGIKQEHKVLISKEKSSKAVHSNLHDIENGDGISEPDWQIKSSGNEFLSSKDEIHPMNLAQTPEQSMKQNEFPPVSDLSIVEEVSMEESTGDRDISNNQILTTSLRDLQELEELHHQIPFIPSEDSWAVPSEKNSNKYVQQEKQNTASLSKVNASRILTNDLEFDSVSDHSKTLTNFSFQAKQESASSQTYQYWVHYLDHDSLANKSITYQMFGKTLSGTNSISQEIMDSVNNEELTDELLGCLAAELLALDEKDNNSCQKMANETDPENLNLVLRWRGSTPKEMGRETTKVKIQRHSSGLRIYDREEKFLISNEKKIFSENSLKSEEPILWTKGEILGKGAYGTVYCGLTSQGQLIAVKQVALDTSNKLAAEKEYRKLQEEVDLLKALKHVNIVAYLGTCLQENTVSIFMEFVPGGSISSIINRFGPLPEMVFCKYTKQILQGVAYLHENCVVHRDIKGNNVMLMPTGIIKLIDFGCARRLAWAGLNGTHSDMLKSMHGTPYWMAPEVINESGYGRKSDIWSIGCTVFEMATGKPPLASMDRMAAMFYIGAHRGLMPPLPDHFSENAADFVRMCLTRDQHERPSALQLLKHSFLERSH
# Sequence of UniProt Q8TBX8 (whole entry, looked up): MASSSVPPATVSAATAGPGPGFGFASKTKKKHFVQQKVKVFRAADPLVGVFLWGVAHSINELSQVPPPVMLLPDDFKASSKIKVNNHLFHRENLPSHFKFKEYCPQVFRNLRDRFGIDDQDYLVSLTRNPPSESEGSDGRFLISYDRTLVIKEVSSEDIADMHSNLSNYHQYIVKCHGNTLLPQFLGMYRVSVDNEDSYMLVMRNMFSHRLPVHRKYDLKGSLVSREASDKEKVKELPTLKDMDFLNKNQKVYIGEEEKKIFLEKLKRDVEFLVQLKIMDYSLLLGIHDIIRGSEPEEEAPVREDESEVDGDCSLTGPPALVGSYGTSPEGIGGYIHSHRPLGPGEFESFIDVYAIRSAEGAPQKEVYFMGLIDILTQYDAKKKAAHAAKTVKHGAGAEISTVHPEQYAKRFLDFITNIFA

# Block 1
# SMILES: O=c1cc(-c2cccc3c2Sc2ccccc2S3)oc(N2CCOCC2)c1
# Observed: enzyme activity
# Mode: inhibitor
# Concentration: 0.5 µM
# Relative to: control
target,remaining activity [%]
"SIK2 (Homo sapiens, UniProt Q9H0K1)",113
"CAMK1 (Homo sapiens, UniProt Q14012)",94.2
"CSNK1D (Homo sapiens, UniProt P48730)",106
"JAK1 (Homo sapiens, UniProt P23458)",105
"TEC (Homo sapiens, UniProt P42680)",198
"CLK2 (Homo sapiens, UniProt P49760)",84.7
"CAMKK1 (Homo sapiens, UniProt Q8N5S9)",112
"TYRO3 (Homo sapiens, UniProt Q06418)",105
"RPS6KA3 (Homo sapiens, UniProt P51812)",102
"PAK1 (Homo sapiens, UniProt Q13153)",92.3
"Cyclin-dependent kinase 2, with cyclin E (CDK2, Homo sapiens, UniProt P24941)",84.6

# Block 2
# Cell line: A-375
# Concentration: 100 µM
# Time: 36 h
SMILES,viability
CCCCC(=O)O[C@]1(C(=O)CO)CC[C@H]2[C@@H]3CCC4=CC(=O)CC[C@]4(C)[C@H]3[C@@H](O)C[C@@]21C,56.2%
Cc1ccc(-c2ncc(Cl)cc2-c2ccc(S(C)(=O)=O)cc2)cn1,105%
O=C[C@H](O)[C@@H](O)[C@H](O)[C@H](O)CO,116%
CC(COc1ccccc1)NC(C)C(O)c1ccc(O)cc1 (centres unmarked),113%
COc1cc(N)c(Cl)cc1C(=O)N[C@@H]1CCN(CCCOc2ccc(F)cc2)C[C@@H]1OC (racemic),65.1%

# Block 3
# Host: human
# Matrix: microsomes or S9
# Concentration: 2 µM
# Time: 0.5 h
Compound,remaining compound [%]
CCc1cc(N2CC[C@H](F)C2)n2nc(C)c(C)c2n1,12.3
CC1(C)CC(Nc2ccc3nncn3n2)CC(C)(C)N1,81.5
CC1CC(=O)N(c2cccc(Cl)c2)N=C1c1ccc(O)cc1 (centres unmarked),70.8
CCOC(=O)c1cc(C(=O)OCC)n(CCCC#N)c1,34.3
COc1cc2nc(OC3CCN(C(=O)OC(C)(C)C)CC3)nc(Nc3ccc(S(C)(=O)=O)cc3F)c2cc1OC,2.69
Cc1nc2ncc(-c3cccc(N(C)C)c3)cc2[nH]1,87.4
Cc1nn(CC(=O)N2c3c(c(C)nn3C)N(C(=O)OC(C)(C)C)CC2C)c(C)c1Cl (centres unmarked),4.86
O=C(Nc1cc(Oc2ncccn2)c(Cl)cc1F)Oc1ccccc1,37.8
CC(=O)CCS(=O)(=O)c1ccc(-c2ccc(S(=O)(=O)CCC(C)=O)cc2)cc1,39.3
c1ccc2c(c1)Cc1cc(-n3nnc4ccccc43)ccc1-2,11
CC1=CC(=O)c2ccccc2C1=O,> 99
CC(C)c1noc(CCCn2ccc(-c3ccc(C#N)cc3)n2)n1,34.6

# Block 4
# SMILES: CO[C@@H](C)c1c(Nc2ccc([C@@H](N(C)C(=O)C3CCS(=O)(=O)CC3)C(F)(F)F)cc2)cnc2cc(Cl)nn12
# Observed: cell-free assay
# Method: competition with immobilised ligand
# Concentration: 1 µM
target,remaining binding [%]
"STK38L (Homo sapiens, UniProt Q9Y2H1)",75
"STK10 (Homo sapiens, UniProt O94804)",98
"CDK8 (Homo sapiens, UniProt P49336)",96
"GRK4 (Homo sapiens, UniProt P32298)",100
"PIK3CA (Homo sapiens, UniProt P42336, H1047Y)",52
"MERTK (Homo sapiens, UniProt Q12866)",79
"MAP4K1 (Homo sapiens, UniProt Q92918)",100
"Tyrosine-protein kinase JAK3, JH1 (JAK3, Homo sapiens, UniProt P52333)",98
"EIF2AK1 (Homo sapiens, UniProt Q9BQI3)",100
"PIP4K2C (Homo sapiens, UniProt Q8TBX8)",58
"Tyrosine-protein kinase ABL1, non-phosphorylated (ABL1, Homo sapiens, UniProt P00519, H396P)",96
"FLT3 (Homo sapiens, UniProt P36888, K663Q)",94
"MAP3K12 (Homo sapiens, UniProt Q12852)",100
"PRKG2 (Homo sapiens, UniProt Q13237)",100
"MAP3K19 (Homo sapiens, UniProt Q56UN5)",77
"Ribosomal protein S6 kinase alpha-3, C-terminal kinase domain (RPS6KA3, Homo sapiens, UniProt P51812)",100

# Some of these lines once more (block 3):
Compound,remaining compound [%]
CCOC(=O)c1cc(C(=O)OCC)n(CCCC#N)c1,34.3
COc1cc2nc(OC3CCN(C(=O)OC(C)(C)C)CC3)nc(Nc3ccc(S(C)(=O)=O)cc3F)c2cc1OC,2.69
Cc1nc2ncc(-c3cccc(N(C)C)c3)cc2[nH]1,87.4
Cc1nn(CC(=O)N2c3c(c(C)nn3C)N(C(=O)OC(C)(C)C)CC2C)c(C)c1Cl (centres unmarked),4.86
O=C(Nc1cc(Oc2ncccn2)c(Cl)cc1F)Oc1ccccc1,37.8
CC(=O)CCS(=O)(=O)c1ccc(-c2ccc(S(=O)(=O)CCC(C)=O)cc2)cc1,39.3
